Measured values of several laboratories.
Parts stem from different laboratories: compare values within a part only. Substitutions count along the parent as printed.

Study 1
Target: CCND2, cyclin fold, Cln2 fusion (human)
Method: yeast growth competition, sequencing
Medium: yeast
Notes: weak parent motif
Relative to: not given
Direction: higher = stronger binding
Quantity: normalised enrichment score
Starting sequence: BRCA2 docking peptide (human); PSIKRNLLNEFDR
Variant = ISIKRNLLNEFDR [P1I]; result = 0.256
Variant = PSIHRNLLNEFDR [K4H]; result = 0.111
Variant = PSIKRNLLNRFDR [E10R]; result = -0.185
Variant = PSIERNLLNEFDR [K4E]; result = -0.117
Variant = PSIKRNLLQEFDR [N9Q]; result = 0.107
Variant = PSIKRNQLNEFDR [L7Q]; result = 0.295
Variant = PGIKRNLLNEFDR [S2G]; result = 0.0997
Variant = PSIKRELLNEFDR [N6E]; result = 0.39
Variant = PSIKRNLLNEFDT [R13T]; result = 0.2
Variant = PYIKRNLLNEFDR [S2Y]; result = 0.411
Variant = PSKKRNLLNEFDR [I3K]; result = 0.67
Variant = PVIKRNLLNEFDR [S2V]; result = 0.0759
Variant = PSIKRNLLNSFDR [E10S]; result = 0.288
Variant = PSIKRQLLNEFDR [N6Q]; result = -0.0857
Variant = PSIMRNLLNEFDR [K4M]; result = -0.0574
Variant = PSIKRALLNEFDR [N6A]; result = 0.205
Variant = PSIKRNLLNQFDR [E10Q]; result = 0.0888
Variant = PLIKRNLLNEFDR [S2L]; result = 0.953
Variant = PSIKRNCLNEFDR [L7C]; result = 0.649
Variant = PSIKYNLLNEFDR [R5Y]; result = 0.116
Variant = PSIKRNLLNEWDR [F11W]; result = 0.09
Variant = PSIKRNLDNEFDR [L8D]; result = 0.0913
Variant = PSTKRNLLNEFDR [I3T]; result = -0.264

Study 2
Target: Myc proto-oncogene protein, bHLH-zipper, MAX partner unstated (MYC, Homo sapiens, UniProt P01106, residues 368-449)
Chain of UniProt P01106 (368-449, looked up): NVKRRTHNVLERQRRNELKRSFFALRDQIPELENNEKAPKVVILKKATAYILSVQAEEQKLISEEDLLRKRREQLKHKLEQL
Method: protein-binding microarray
Molecule type: double-stranded DNA, one strand shown
Medium: in vitro
Tested at: not given
Notes: k-mer, scored over probes, only values ≥0.25
Direction: higher = stronger binding
Quantity: E-score
Strand = CATGGTGC; result = 0.399
Strand = CCACCTGC; result = 0.387
Strand = CACGAGGG; result = 0.472
Strand = CGCGGCCA; result = 0.293
Strand = ATGCCACA; result = 0.307
Strand = GGGGAGCA; result = 0.267
Strand = ACGGCCAC; result = 0.264
Strand = ACACGCCG; result = 0.395
Strand = TGCATGCA; result = 0.339
Strand = ACGGCACG; result = 0.326
Strand = CAGCGTGC; result = 0.409
Strand = CATGCGCG; result = 0.411
Strand = ACGCACCC; result = 0.274
Strand = ACGTGGCT; result = 0.46
Strand = ATCACGAG; result = 0.329
Strand = GGCCACAC; result = 0.296
Strand = CCACGAGA; result = 0.406

Study 3
Target: Prothrombin, mature alpha-thrombin (F2, Homo sapiens, UniProt P00734)
Method: aptamer microarray, sandwich
Molecule type: DNA with 2'F-ANA
Medium: in vitro
Tested at: 200 nM
Notes: whole 15-mer aptamer, many near background
Added: Cy3 exosite-II aptamer, 400 nM
Direction: higher = stronger binding
Quantity: mean fluorescence intensity
Strand: GGTTGGTGTGGTTGG
Modification = 2'F-ANA at 3 6 7 8 10 11 13; result = 496 a.u.
Modification = 2'F-ANA at 2 3 7 9 12 14 15; result = 433 a.u.
Modification = 2'F-ANA at 1 2 4 5 8 10 11 13; result = 55 a.u.
Modification = 2'F-ANA at 2 3 4 5 6 7 9 10 11 12 15; result = 59.9 a.u.
Modification = 2'F-ANA at 2 5 7 10 12 13; result = 94.2 a.u.
Modification = 2'F-ANA at 1 3 6 9 13 14; result = 72.8 a.u.
Modification = 2'F-ANA at 1 2 4 7 14; result = 61.7 a.u.
Modification = 2'F-ANA at 1 4 6 7 9 10 11 13 14; result = 47.2 a.u.
Modification = 2'F-ANA at 1 3 6 7 8 10 12 13 15; result = 110 a.u.
Modification = 2'F-ANA at 2 3 4 8 10 11 15; result = 230 a.u.
Modification = 2'F-ANA at 3; result = 1300 a.u.
Modification = 2'F-ANA at 2 7 8 9 10 11 12 13 15; result = 144 a.u.
Modification = 2'F-ANA at 1 4 5 7 8 10 12 14; result = 46.1 a.u.
Modification = 2'F-ANA at 3 4 6 9 12 15; result = 805 a.u.
Modification = 2'F-ANA at 2 4 5 11 13; result = 51.7 a.u.
Modification = 2'F-ANA at 1 6 7 8 13 14; result = 57.1 a.u.
Modification = 2'F-ANA at 2 3 5 8 12 15; result = 237 a.u.
Modification = 2'F-ANA at 1 2 3 7 8 9 10 13 15; result = 96.7 a.u.
Modification = 2'F-ANA at 1 2 4 5 7 10 12 13; result = 791 a.u.
Modification = 2'F-ANA at 2 4 5 8 9 14; result = 42.7 a.u.
Modification = 2'F-ANA at 1 2 4 5 7 8 9 10 12 13 14; result = 47.2 a.u.
Modification = 2'F-ANA at 1 2 3 4 6 8 9 13 15; result = 106 a.u.
Modification = 2'F-ANA at 2 4 5 8 9 11 14 15; result = 55.7 a.u.
Modification = 2'F-ANA at 1 3 4 8 11 12 13 15; result = 285 a.u.
Modification = 2'F-ANA at 2 3 4 7 8 10 11 12 13 14; result = 157 a.u.

Study 4
Target: Histone acetyltransferase KAT6A, winged helix 1, GST fusion (KAT6A, Homo sapiens, UniProt Q92794, residues 1-85)
Method: protein binding microarray
Molecule type: double-stranded DNA, one strand shown
Medium: in vitro
Tested at: not given
Notes: 8-mer, flanks averaged, mean of 2 arrays, mostly near background
Relative to: not given
Direction: higher = stronger binding
Quantity: E-score
Residues (chain): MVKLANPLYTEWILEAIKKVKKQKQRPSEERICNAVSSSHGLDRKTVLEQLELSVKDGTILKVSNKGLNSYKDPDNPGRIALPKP
Strand = ATTGTGGA; result = -0.367
Strand = ATCTGAGC; result = 0.0311
Strand = CTATCATC; result = -0.0255
Strand = CAAACACC; result = 0.0643
Strand = GAATGAAA; result = -0.0713
Strand = AAGCAAAT; result = -0.312
Strand = ACGGCACT; result = 0.366
Strand = GGCTGAAA; result = 0.0215
Strand = GCACCGCA; result = 0.243
Strand = AGAATCCC; result = -0.0124
Strand = GACTTGGC; result = -0.207
Strand = AAGCAGTC; result = -0.192
Strand = TCCTGAAA; result = -0.0957
Strand = CCGTGTAG; result = 0.176
Strand = AATAGGCC; result = -0.0694
Strand = GCGTCCAC; result = 0.169
Strand = CCACAATC; result = -0.121
Strand = CCGGGGAC; result = 0.221
Strand = TATTACCA; result = -0.0992
Strand = AGATGTAT; result = -0.104
Strand = CATGTATA; result = -0.177
Strand = GCCCTGCC; result = 0.0605
Strand = AGCCATGG; result = -0.127
Strand = TCGCTAGA; result = -0.111
Strand = GCTCGGTA; result = 0.18

Study 5
Target: NFE2L2, bZIP domain (human)
Method: DHFR protein complementation
Medium: yeast
Notes: single substitutions, most at no-binding floor
Relative to: wild-type JUN-FOS pair
Direction: higher = stronger binding
Quantity: binding fitness
Starting sequence: JUN, bZIP domain (human); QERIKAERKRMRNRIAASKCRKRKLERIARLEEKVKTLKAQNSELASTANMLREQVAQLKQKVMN; partner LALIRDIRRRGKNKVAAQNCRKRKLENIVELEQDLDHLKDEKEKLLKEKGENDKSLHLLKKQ
Variant = M51T; result = -1.51 natural log
Variant = T48V; result = -1.47 natural log
Variant = N42C; result = -1.56 natural log
Variant = T48C; result = -1.29 natural log
Variant = E44P; result = -1.59 natural log
Variant = T37G; result = -1.44 natural log
Variant = A40G; result = -1.41 natural log
Variant = S43P; result = -1.51 natural log
Variant = V56H; result = -1.48 natural log
Variant = A29V; result = -1.27 natural log
Variant = R53A; result = -1.54 natural log
Variant = L31I; result = -1.54 natural log
Variant = L59G; result = -1.08 natural log
Variant = K36H; result = -1.45 natural log
Variant = M51E; result = -1.4 natural log
Variant = A49C; result = -1.41 natural log
Variant = E33N; result = -1.4 natural log
Variant = M51C; result = -1.43 natural log
Variant = E44Y; result = -1.43 natural log
Variant = I28T; result = -1.44 natural log
Variant = S43N; result = -1.1 natural log
Variant = T48K; result = -1.11 natural log
Variant = L52C; result = -1.57 natural log
Variant = Q55T; result = -1.54 natural log
Variant = R53G; result = -1.54 natural log

Study 6
Target: RNA binding protein fox-1 homolog 2, RRM domain, GST-SBP tag (RBFOX2, Homo sapiens, UniProt O43251-10, residues 100-194)
Method: RNA Bind-n-Seq
Molecule type: RNA
Medium: in vitro
Tested at: 365 nM
Notes: natural RNA segment, single round, ends assumed
Relative to: no-protein control
Direction: higher = stronger binding
Quantity: RBNS enrichment (R)
Shared flanks, not repeated: GGGAGUUCUACAGUCCGACGAUC … UGGAAUUCUCGGGUGCCAA
Target sequence (chain): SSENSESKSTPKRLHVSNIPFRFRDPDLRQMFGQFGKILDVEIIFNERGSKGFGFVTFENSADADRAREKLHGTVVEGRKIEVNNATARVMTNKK
Strand = GCAGCACCUUGCCGGCCAGGAGGAGCUGAUGCUGACGAUCUCCCCAACAUCUGAAGGCUUAAAGAACAUUGUCGUUCUUCAGCCCUCCUUGCUUCUCUCAAUACAAUAAG; result = 0.931
Strand = AUUCGCCCUCACAGAGGGCGUGUGGUCCACGAAGCUGUCUACAGGGGAGGCUGCAGGCAGGAAGCAGGCGUGGGGCAGAAGACUGGGGACCCUUGAAGCGUCCAACUCAU; result = 0.401
Strand = UUAUUGUGGAGCAUAGGAAUUGCCCCCCUCCAGGCUUCACCCUCCCUGCCUAAGCAGGGUGGGGGCAGAGCCAUGACAUUUUUGGUUUAAAGGAGCCUUCUCAUCUCUGG; result = 0.156
Strand = CUGCAGUGAGAUCCCAGGAAGCUGGCACAUCUUGGAAGGUCCGUCCUGCUCGGCUUUUCGCUUGAACAUUCCCUUGAUCUCAUCAGUUCUGAGCGGGUCAUGGGGCAACA; result = 0.272
Strand = UGAGUAUAUAGAAAGAAAAGUUACAGUACUCUGUGGGAAAAUCUCAGCUGACAUCAUGAAUAGAAUGAGGUCUGCUUCAGAACCUUUUGUUGUCAACUGUCACUGUUUCU; result = 0.346
Strand = UACUAUUAGGUAUGUAAGCUUGGGCAAAUCGCUUAACCUUCAGGUCUAGCUUUCUCACAGAAUGAGGACACUGGACUAAAUGAUUGCCCAGUUUCCAGCUAGUCCUAGAG; result = 0.356
Strand = CCCCCAUAUUCAGCCACCUGCUGCACCAGGAAGAGGGUGUGAAAGAUUGUGCAUCUGCAUUCAACUACCCUGAACCCUUAGGGAAGAAAUGGAUUCCCUGGCUGAGCCAG; result = 0.449
Strand = GUCAAUAAAGAUAGUUCAAGGCCAGCUUGGACUAUAUGAUAUGACUGCCCAAUUUUAAAGUUAUUCUUUUUGGGAGUGAGACAGGAUUAACUAAACAAGUUUGUGUUUUU; result = 0.665
Strand = UCUAUGAUCUGAAGAACAAAAAAAAAAGCUUUUUGACUUGUAUAAGAUUUAUGUCUACUGUAAACAUUGCGGAAUUUUUUUUUGUUCUUGUUUUAUUGACAAUGCUAUUG; result = 0.644
Strand = CCUCCAUCCUUUCUUCUCUGGUCCCCAUCCCUGUCUCUCCCUUUCACCCUUGCCCUCCAGUCCUCUACCUCUGGCCUGCCCCUAUUUCUGAAAGCUUCUUCCAGUCCCUG; result = 1.12
Strand = UAAGUAGCAAUGGUUAUUUUUAUUGGUAGUAACUGAACAGUGUUUUGCAAUUUGUGAAACAGUGUAUUGUGUUUUGUAAAAUGAUGUCAUGAAAUGGUGGGUCCUUGGAA; result = 0.728
Strand = UGUUAUGCAAACAGUAAUUUUUCCCUAUGUUAUGAAGAGAGACAUAUUGGCUUGCUUUAAUUUACUUAUUUAUGAAAUUAAAGCAUGAAUAAUAUGUAUAAUUUGAAUUU; result = 3.02
